Published values of several laboratories.
Protocols differ between the studies behind these lines.
Sequence of UniProt Q9NY57 (whole entry, looked up): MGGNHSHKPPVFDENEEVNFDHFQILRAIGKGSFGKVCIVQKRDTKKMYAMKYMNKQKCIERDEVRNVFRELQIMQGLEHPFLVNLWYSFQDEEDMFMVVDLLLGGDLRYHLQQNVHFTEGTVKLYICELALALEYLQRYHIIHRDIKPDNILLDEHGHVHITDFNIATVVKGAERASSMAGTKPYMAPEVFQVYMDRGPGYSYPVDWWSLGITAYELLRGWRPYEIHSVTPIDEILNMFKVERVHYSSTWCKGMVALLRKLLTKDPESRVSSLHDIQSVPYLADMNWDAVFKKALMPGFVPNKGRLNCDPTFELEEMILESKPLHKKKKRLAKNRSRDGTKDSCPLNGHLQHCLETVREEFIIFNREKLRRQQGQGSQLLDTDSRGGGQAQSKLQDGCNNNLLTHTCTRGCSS
Sequence of UniProt P10721 (whole entry, looked up): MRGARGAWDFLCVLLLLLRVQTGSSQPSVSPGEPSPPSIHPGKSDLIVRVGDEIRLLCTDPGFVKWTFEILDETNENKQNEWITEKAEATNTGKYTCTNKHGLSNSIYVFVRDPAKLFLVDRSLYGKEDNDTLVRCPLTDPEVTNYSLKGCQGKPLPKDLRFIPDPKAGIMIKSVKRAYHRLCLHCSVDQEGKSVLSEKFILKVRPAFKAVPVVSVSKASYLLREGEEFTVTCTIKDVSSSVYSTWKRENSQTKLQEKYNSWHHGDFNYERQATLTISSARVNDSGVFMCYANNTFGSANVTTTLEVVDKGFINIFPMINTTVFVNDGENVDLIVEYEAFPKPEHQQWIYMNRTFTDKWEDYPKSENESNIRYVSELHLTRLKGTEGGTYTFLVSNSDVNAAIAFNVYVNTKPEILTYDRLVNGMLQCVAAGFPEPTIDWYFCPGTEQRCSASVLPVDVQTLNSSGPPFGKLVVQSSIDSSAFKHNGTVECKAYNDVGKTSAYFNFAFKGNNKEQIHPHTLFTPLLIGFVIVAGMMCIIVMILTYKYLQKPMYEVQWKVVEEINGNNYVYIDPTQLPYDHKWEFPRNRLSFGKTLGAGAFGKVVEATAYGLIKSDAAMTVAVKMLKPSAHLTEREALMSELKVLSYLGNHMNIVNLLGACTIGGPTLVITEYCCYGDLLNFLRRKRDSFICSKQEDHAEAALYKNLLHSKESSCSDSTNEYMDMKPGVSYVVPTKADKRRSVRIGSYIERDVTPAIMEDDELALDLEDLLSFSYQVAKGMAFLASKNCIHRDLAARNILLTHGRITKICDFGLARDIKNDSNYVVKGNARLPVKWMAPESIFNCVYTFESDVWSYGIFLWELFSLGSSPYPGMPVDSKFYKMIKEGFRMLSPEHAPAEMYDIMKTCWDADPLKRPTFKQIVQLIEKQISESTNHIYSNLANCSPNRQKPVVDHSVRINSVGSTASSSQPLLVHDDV
Sequence of UniProt P29597 (whole entry, looked up): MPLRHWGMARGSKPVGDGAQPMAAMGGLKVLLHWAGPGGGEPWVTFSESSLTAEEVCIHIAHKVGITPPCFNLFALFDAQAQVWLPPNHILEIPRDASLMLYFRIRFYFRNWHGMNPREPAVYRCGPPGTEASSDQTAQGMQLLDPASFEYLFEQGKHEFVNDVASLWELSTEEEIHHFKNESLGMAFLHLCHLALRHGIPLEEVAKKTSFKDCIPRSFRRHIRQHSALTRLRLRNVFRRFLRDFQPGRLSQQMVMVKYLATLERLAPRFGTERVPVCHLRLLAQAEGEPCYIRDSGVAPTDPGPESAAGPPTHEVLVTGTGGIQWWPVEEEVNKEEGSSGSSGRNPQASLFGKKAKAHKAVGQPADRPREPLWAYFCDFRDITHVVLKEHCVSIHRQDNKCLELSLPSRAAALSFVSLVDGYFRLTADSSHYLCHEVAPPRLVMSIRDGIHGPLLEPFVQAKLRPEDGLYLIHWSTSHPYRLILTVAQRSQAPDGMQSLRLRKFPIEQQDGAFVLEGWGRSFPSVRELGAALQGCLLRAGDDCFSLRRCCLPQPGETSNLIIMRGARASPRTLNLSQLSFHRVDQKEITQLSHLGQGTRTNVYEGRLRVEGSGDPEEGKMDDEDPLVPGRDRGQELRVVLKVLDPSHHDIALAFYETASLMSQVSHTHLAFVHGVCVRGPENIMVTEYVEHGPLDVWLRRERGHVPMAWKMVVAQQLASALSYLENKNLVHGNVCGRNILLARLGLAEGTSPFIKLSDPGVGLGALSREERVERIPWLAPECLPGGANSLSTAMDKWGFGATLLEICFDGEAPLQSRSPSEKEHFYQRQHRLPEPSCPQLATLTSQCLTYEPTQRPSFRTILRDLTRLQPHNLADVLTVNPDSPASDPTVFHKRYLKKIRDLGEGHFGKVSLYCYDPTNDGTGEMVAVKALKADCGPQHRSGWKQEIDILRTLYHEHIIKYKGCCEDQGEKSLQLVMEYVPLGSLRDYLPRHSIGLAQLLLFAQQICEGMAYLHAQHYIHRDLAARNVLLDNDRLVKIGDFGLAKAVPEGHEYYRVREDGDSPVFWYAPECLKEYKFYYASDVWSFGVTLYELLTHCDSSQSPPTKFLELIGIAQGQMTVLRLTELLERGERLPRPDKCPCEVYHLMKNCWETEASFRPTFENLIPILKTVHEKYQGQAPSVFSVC

The IC50 of N.N.[Cl][Pt][Cl] is reported as 130 µM (SH-SY5Y; cell growth or viability, MTT; 24 h).
N.N.[Cl][Pt][Cl] has an IC50 of 0.18 µM (OCI-LY19; cell growth or viability, ATP luminescence; 72 h).
For N.N.[Cl][Pt][Cl], the IC50 was 11.6 µM (A2780cis; cell growth or viability, MTT; 72 h).
Cc1cc(N(CCOS(C)(=O)=O)CCOS(C)(=O)=O)ccc1C=O gave an IC50 of 0.267 µg/mL (786-0; cell growth or viability).
[2H]c1c([2H])c([C@]2([2H])CCCN2C(=O)C(C)(C)Oc2ccc3cn[nH]c3c2)c([2H])c([2H])c1C([2H])([2H])[2H] has a remaining binding of 100% (Serine/threonine-protein kinase 32B (STK32B, Homo sapiens, UniProt Q9NY57); binding, competition with immobilised ligand; 1 µM).
For Cc1nn(C)cc1-c1nc2c(N3CCN(Cc4ccc(Cl)cc4)CC3)c(Cl)cnc2[nH]1, the remaining binding was 4.6% (Mast/stem cell growth factor receptor Kit (KIT, Homo sapiens, UniProt P10721); binding, competition with immobilised ligand; 1 µM).
CC(=O)N[C@H]1[C@@H](O[C@@H]2O[C@H](C[C@@H](O)[C@H]3O[C@@H](n4ccc(=O)[nH]c4=O)[C@H](O)[C@@H]3O)[C@H](O)[C@H](O)[C@H]2NC(=O)/C=C/CCCCCCCCCC(C)C)O[C@H](CO)[C@@H](O)[C@@H]1O gave an IC50 of 0.45 µM (Vero; cell growth or viability, WST-1).
COc1ccc(-c2c(-c3ccc(C#N)c(F)c3)nc(N3CCC(N)CC3)n(C)c2=O)cc1F has an IC50 of 12 µM (HEK293; cell growth or viability, resazurin).
N.N.[Cl][Pt][Cl] gave an IC50 of 10.4 µM (SW480; cell growth or viability, MTT; 72 h).
COC(=O)c1cc(-c2cccc(NC(=O)Nc3ccc(F)c(F)c3)c2)on1 gave an MIC of over 64 µg/mL (Mycolicibacterium fortuitum; microbial growth, broth dilution; ATCC6841; 48 h).
For O=C1CCP(c2ccccc2)CC1, the IC50 was 94.3 µM (SW480; cell growth or viability, MTT; 72 h).
COc1cc2cc(c1Cl)N(C)C(=O)C[C@H](OC(=O)[C@H](C)N(C)C(=O)CCS)[C@]1(C)O[C@H]1[C@H](C)[C@@H]1C[C@@](O)(NC(=O)O1)[C@H](OC)/C=C/C=C(\C)C2 has an IC50 of 0.0129 µM (HUVEC; cell growth or viability, SRB; 48 h).
The IC50 of Cc1cc(N(CCO)CCO)ccc1C(=O)O is reported as over 10 µg/mL (786-0; cell growth or viability).
O=C1CCP(=S)(c2ccccc2)CC1 gave an IC50 of 5.1 µM (SW480; cell growth or viability, MTT; 72 h).
CC(=N)S has an IC50 of 132 µM (THLE-2; cell growth or viability, MTT).
CN[C@@H]1C[C@H]2O[C@@](C)([C@@H]1OC)n1c3ccccc3c3c4c(c5c6ccccc6n2c5c31)C(=O)NC4 gave an IC50 of 0.271 µM (MP41; cell growth or viability, ATP luminescence; 72 h).
The remaining binding of Nc1ncc(-c2nc(N3CCOCC3)nc(N3CCOCC3)n2)c(C(F)F)n1 is reported as 56% (Non-receptor tyrosine-protein kinase TYK2, JH1 (TYK2, Homo sapiens, UniProt P29597); binding, competition with immobilised ligand; 10 µM).
The MIC of COC(=O)c1cc(-c2cccc(NC(=S)NC3CCCCC3)c2)on1 is reported as over 64 µg/mL (Mycolicibacterium fortuitum; microbial growth, broth dilution; ATCC6841; 48 h).
